# Measured values of several laboratories.
# Each numbered part is a random draw from the data of one study; scales do not carry over between parts.
# UniProt Q13283, sequence (whole entry, looked up): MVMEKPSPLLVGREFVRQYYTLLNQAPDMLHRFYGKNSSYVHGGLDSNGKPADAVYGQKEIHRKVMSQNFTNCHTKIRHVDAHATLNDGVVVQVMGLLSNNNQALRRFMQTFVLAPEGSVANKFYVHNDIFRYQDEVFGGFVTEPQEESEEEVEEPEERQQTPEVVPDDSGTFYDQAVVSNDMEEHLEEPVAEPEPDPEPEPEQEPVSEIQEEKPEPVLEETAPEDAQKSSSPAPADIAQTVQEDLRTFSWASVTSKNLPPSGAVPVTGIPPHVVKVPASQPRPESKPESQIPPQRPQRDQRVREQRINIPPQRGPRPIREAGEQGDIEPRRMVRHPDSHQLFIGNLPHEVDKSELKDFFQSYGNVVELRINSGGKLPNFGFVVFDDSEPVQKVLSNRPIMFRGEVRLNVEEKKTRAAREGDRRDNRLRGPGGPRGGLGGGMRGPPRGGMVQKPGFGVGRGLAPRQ

# Series 1
# Target: Histone acetyltransferase KAT6A, winged helix 1, GST fusion (KAT6A, Homo sapiens, UniProt Q92794, residues 1-85)
# Technique: protein binding microarray
# Form: double-stranded DNA, one strand shown
# Medium: in vitro
# Concentration: not given
# Notes: 8-mer, flanks averaged, mean of 2 arrays, mostly near background
# Baseline: not given
# Direction: higher = stronger binding
# Target sequence (chain): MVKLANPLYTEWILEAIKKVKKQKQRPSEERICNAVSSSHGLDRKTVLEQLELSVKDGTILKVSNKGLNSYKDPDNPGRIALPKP
Sequence,E-score
GGTACCTA,-0.0867
AGTTGTTG,-0.158
AATACTTC,-0.136

# Further values, each from its own experiment
Molecule,target,test,system,conditions,how to read,measurement,result
GGGAGUUCUACAGUCCGACGAUCUUAAAGAAAAAUCUUCUAAGGGAUUUGGAUUUUACUUUCUUUAGAAUGACAAGUGAAUCAUAUUGACAUUUUACAAUCUUAGAUUUUUCUUUUUUUUUCUUUUGAGACAGUGGAAUUCUCGGGUGCCAA,"RNA binding protein fox-1 homolog 2, RRM domain, GST-SBP tag (RBFOX2, Homo sapiens, UniProt O43251-10, residues 100-194)",RNA Bind-n-Seq,"RNA, in vitro","365 nM, natural RNA segment, single round, ends assumed","baseline: no-protein control, higher = stronger binding",RBNS enrichment (R),0.632
GCCTAGCACGGCTGTTTGGTCCTGAACCTGTGCTAGGTCTTGATTCGCTTGACGCTGCTG,"Interferon regulatory factor 5, full length, phosphomimetic (IRF5, Homo sapiens, UniProt Q13568-2, residues 1-514, K96S/S451D/S453D/S456D/S462D)",protein-binding microarray,"double-stranded DNA, one strand shown, in vitro","250 nM, 60-bp whole probe, together with: salmon DNA 0.4 mg/ml","baseline: random background probes, higher = stronger binding",log fluorescence,-0.478 z-score
GGGAGUUCUACAGUCCGACGAUCCACAGACAACACGCACCCACACAGACACAGAGGGAAGGGGUUGGGAUGGGGACAGGUUGCACAGCAGGGCGGGGUAGGACCCCAGCCCCUUGGAAUUCUCGGGUGUCAAGG (7-deaza-guanosine replaces G),"Fragile X messenger ribonucleoprotein 1, C-terminal low-complexity region (Fmr1, Mus musculus, UniProt P35922)",RNA Bind-n-Seq,"RNA, in vitro","200 nM, whole 134-nt RNA, ends assumed, together with: 150 mM LiCl","baseline: input library, higher = stronger binding",log2 enrichment,-0.0655
GCCTAGCACGACGGATTGGACTATCGGGACGTGCTAGTCTTGATTCGCTTGACGCTGCTG,"Interferon regulatory factor 5, full length, phosphomimetic (IRF5, Homo sapiens, UniProt Q13568-2, residues 1-514, S451D/S453D/S456D/S462D)",protein-binding microarray,"double-stranded DNA, one strand shown, in vitro","940 nM top, 60-bp whole probe, together with: salmon DNA 0.4 mg/ml","baseline: random background probes, higher = stronger binding",fitted relative affinity,-0.301 z-score
GGGAGUUCUACAGUCCGACGAUCGUGCUGGCUGGCCACGGUCACCUGUAUUCCCGCAUCCCAGGCCUGCUCAGCCCCCAUCCCCUGCUGCAGCUGAGCUACACGGCCACCGACUGGAAUUCUCGGGUGUCAAGG,"Ras GTPase-activating protein-binding protein 1, C-terminal RGG region (G3BP1, Homo sapiens, UniProt Q13283)",RNA Bind-n-Seq,"RNA, in vitro","1 µM, whole 134-nt RNA, ends assumed, together with: 150 mM KCl","baseline: input library, higher = stronger binding",log2 enrichment,0.691
"PhoQ, residues 284 288 289 292 302 303 AANNSF","PhoP, residues 12 14 15 18 19 TTLRV (Escherichia coli, UniProt P23836)","Sort-seq, measured: YFP reporter",E. coli,"PhoQ-PhoP variant library, together with: 10 µM Mg2+","baseline: high Mg2+ state, higher = stronger signaling",fold induction,7.94
